Measured values pooled from the literature.
Numbered parts are unrelated; each lists some results of a single study.
UniProt Q9C0C9, sequence (whole entry, looked up): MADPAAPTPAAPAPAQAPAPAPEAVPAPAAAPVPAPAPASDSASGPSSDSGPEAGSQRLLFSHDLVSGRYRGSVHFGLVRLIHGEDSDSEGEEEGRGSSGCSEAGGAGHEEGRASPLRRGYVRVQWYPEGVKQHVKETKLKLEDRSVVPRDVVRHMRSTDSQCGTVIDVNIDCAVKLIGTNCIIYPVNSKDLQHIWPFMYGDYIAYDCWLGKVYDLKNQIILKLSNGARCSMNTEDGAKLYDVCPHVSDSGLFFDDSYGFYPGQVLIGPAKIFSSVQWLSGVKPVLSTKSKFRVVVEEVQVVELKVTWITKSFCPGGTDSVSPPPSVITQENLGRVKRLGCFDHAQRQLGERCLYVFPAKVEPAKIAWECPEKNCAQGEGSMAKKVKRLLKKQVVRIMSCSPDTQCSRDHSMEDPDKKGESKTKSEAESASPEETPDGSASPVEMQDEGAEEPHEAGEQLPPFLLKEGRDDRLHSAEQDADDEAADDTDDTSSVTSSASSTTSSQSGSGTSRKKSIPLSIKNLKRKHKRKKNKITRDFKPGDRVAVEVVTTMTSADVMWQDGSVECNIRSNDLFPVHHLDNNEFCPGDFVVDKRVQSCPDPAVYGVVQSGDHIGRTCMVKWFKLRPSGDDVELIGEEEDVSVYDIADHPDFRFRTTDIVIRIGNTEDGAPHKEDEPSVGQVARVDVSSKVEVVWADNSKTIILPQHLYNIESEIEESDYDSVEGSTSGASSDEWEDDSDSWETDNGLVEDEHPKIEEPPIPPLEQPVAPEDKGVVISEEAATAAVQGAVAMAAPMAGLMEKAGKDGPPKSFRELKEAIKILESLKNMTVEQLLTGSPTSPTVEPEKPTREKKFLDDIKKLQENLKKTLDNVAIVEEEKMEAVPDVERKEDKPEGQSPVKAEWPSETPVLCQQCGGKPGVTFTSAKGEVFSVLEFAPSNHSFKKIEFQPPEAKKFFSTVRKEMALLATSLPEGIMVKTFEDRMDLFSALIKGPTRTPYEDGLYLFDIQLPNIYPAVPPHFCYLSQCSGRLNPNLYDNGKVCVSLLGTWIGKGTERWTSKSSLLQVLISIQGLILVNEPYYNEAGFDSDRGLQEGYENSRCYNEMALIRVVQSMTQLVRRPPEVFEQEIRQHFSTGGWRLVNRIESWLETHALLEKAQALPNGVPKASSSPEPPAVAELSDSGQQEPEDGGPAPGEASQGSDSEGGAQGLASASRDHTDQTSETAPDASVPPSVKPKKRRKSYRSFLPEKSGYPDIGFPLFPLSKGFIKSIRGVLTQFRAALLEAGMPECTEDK
UniProt P68036, sequence (whole entry, looked up): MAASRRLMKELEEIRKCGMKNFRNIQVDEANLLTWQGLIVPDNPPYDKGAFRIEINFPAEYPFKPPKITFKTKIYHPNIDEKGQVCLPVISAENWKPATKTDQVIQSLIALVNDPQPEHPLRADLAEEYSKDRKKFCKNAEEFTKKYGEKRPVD
UniProt P61081, sequence (whole entry, looked up): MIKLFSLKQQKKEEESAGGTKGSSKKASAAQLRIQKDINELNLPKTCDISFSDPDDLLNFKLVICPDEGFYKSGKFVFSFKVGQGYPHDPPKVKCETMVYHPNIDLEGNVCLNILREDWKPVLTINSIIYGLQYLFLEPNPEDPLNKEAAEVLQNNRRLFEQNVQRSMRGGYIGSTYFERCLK
UniProt Q16763, sequence (whole entry, looked up): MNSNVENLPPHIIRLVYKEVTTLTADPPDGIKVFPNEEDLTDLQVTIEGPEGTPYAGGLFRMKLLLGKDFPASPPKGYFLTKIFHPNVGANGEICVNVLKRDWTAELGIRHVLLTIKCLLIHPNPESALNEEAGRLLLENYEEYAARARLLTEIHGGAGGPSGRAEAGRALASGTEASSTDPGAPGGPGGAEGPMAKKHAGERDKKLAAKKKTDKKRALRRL
UniProt Q9Y385, sequence (whole entry, looked up): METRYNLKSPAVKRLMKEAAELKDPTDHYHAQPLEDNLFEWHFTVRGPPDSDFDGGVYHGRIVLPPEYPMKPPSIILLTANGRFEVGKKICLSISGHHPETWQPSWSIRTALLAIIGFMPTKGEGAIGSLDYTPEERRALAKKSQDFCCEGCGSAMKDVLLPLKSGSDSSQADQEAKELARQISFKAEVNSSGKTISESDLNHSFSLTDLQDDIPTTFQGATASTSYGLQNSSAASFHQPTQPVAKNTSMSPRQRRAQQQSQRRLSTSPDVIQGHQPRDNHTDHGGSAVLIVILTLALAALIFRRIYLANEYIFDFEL
UniProt Q969T4, sequence (whole entry, looked up): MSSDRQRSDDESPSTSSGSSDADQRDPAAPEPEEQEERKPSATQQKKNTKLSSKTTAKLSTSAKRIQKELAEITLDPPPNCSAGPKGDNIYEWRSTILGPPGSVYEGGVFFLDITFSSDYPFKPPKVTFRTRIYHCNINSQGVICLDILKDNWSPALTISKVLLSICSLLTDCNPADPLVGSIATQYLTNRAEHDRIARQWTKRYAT
UniProt Q9NPD8, sequence (whole entry, looked up): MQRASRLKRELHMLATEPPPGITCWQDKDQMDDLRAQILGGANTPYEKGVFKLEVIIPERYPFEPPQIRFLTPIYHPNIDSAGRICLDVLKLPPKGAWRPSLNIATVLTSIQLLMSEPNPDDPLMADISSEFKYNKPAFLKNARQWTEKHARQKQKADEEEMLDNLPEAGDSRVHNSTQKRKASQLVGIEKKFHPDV
UniProt O00762, sequence (whole entry, looked up): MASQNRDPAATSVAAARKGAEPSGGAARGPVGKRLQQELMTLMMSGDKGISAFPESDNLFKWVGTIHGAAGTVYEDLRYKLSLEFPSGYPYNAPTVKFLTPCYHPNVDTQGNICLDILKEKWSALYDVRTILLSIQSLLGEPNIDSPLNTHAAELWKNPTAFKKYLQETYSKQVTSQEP

Block 1
Target: Histone acetyltransferase KAT6A, winged helix 2, GST fusion (KAT6A, Homo sapiens, UniProt Q92794, residues 85-181)
Technique: protein binding microarray
Form: double-stranded DNA, one strand shown
Matrix: in vitro
Tested at: not given
Notes: 8-mer, flanks averaged, mean of 2 arrays, mostly near background
Relative to: not given
Direction: higher = stronger binding
Residues (chain): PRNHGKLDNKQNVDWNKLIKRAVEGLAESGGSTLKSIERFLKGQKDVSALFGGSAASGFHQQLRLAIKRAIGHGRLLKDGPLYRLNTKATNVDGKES
Sequence | E-score
GGCCAAAA | 0.158
CGTTGGAA | 0.0172
AATTTATC | 0.192
ACACCCCC | -0.175
GATTTACC | 0.0491
TCCTGGCA | 0.0656
CATCATCA | 0.0184
CCCAGTGA | -0.0775
GGCTTCAA | -0.0742
AGCCTTAG | -0.13
AATACAGT | -0.202
CGGCGCCC | 0.188
ACCCGGAT | 0.139
CAGCTCAC | 0.0615
CATACGAG | -0.00768
GGCACACA | 0.0942
TCGCTCAA | 0.0083
ATCTGCTG | 0.103
ACGTCGCC | -0.0649
AATGTCGA | -0.0126
GTCGCATA | 0.0527
ACTCGACT | -0.144
AGGGTGTG | 0.028
AATTGTCT | -0.0481
ACGCTCTG | -0.00524

Block 2
Target: Phosphate system positive regulatory protein PHO4, full length, GST-tagged (PHO4, Saccharomyces cerevisiae, UniProt P07270, residues 1-312)
Technique: competition protein-binding microarray
Form: double-stranded DNA, one strand shown
Matrix: in vitro
Tested at: 2 µM
Notes: whole 60-bp probe, lowest competitor level
With: Cbf1 competitor, 0.05 µM
Direction: higher = stronger binding
Constant ends, left off below: … GTCTTGATTCGCTTGACGCTGCTG
Construct (chain): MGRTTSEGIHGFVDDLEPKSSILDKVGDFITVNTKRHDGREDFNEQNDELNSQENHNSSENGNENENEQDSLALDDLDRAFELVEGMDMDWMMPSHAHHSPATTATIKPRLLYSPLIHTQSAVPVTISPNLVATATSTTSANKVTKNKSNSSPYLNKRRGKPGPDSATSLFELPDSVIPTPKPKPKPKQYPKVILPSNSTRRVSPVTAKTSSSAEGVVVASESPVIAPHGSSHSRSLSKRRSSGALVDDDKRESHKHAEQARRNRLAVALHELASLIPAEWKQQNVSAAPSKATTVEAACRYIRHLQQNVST
Sequence | fluorescence intensity [a.u.]
CGGGGTTAAGTTTGAATGGTGGGTGGCTTGCAGCAG | 5000
CATCATCATCATCATCCATATCAGTAATAGGTTTTC | 3740
AAGTTACGCGTATATCATGTGACAGTAATTACTATA | 7190
TGAATGACTTGTTGGAACGTGGTGAAATTTCTTTGG | 12200
CTTAAATGAAACTGACGCGTGGCCGTAGATTCCAAC | 8980
CGGCCCAGATTTTTTCACCTGACTCCGGTCCTGACG | 2670
CTAACGAAGGTTTTTCACGTGTTCTACAAGCCAAGT | 14700
TTGCGAAAGCCGCAGAACGTGATGGATAAACATCAA | 10700
ACTGCTGTCTATAACGGCGTGACGGGTTTAGCATAA | 6180
CTTTCCCGATCTTGGACCGTGGGTGTAGCACATTTG | 9600
TTTACTTAGAACGACCACGTTACGATCTTTAGTTCC | 9530
CCAGATCCGGATCCAAACATGACAATCGAAGATTAT | 3280
ATTAAGAGAAGGAAGAGCGTGCTAAGCAGGTTCTTC | 8990
AAGTCGTTAGGGCCAATCGTGGGACGTATGCTATTG | 6340
ACCTTCTTTGGCGTTGTTGTGACGGAGACTTCCTGT | 3770
ACCCTTTTTCCTTGCCACGTTTTCACTCAGATCTAA | 13500
ATACTTGAAACATTTCACGTTCCCGAAGACGTAGAC | 8800
CATACCCAACCTTGTCACGCAACTTAAGATATTTGT | 5960
CGGGGTTAAGTTTGCGCGGTGGGTGGCTTGCAGCAG | 5090

Block 3
Target: Hepatocyte nuclear factor 3-alpha (Foxa1, Mus musculus, UniProt P35582, residues 1-468, full length assumed)
Technique: EMSA with sequencing
Form: double-stranded DNA, one strand shown
Matrix: in vitro
Tested at: 10 and 20 nM
Notes: whole designed probe, mean of two concentrations, ends assumed
Relative to: negative control set to 0
Direction: higher = stronger binding
Constant ends, left off below: GTGAGCGGTGCCCATTGATGGGGAAC … TTTCACTGGGATCGTGGGGAC
Construct (chain): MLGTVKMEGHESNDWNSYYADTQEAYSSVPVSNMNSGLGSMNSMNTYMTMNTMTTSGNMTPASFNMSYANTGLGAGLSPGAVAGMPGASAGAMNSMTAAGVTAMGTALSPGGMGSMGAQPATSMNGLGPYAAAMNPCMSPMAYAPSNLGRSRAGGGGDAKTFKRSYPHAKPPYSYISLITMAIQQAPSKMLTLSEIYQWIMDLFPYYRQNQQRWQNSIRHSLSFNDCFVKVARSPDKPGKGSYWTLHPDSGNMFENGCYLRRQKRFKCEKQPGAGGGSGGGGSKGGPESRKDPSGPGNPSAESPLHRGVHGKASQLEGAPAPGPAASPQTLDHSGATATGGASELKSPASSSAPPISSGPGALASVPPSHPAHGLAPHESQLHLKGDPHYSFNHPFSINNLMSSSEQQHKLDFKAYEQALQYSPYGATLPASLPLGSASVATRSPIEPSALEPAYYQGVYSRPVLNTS
Sequence | normalised bound fraction [ratio]
CACTCATAGTCTTGCTATCCTTCATATACAGAGATGACCCTCCCAAGCCTAAAATCAACAGGGGGAGGCATAGAGCTGTCCTTCTGGCTCTAATGTTTGCTTTATCCACGCCCATCCATCATCTTAGTCCAGCATGTGAGAGCCAGTGTGAAGTGAGCAGAATATGGCATAAGTATGGAGTCATACATCCTTA | 0.349
TATACTTGCATTTAATTTATACTAATTCTACTATGTGTTTCACCAAAAATAAATTGAAAAGGATACTGCTCACTCAGTGAACACATGCTCCAGAGTAAACATGAAATGAGCAATGTGAATGGGGCATTCACGTTTCACAAATTGAACAGTTTTGATGGTGAGGGCAAAGTGTCACTCACCCTTATGCTTATGA | 0.253
GCAGACATTGGGCCCTACGTGGCACCTGGCTACTGTGCATGGTTGCAGGTCAGGGCAGGCCGGGCCACAGGGCAGGGCCACCCTCCCATTCCCATGTTTACACTGAGCATTTCCTCTGCCTGTGTCTCTTGGGCTGGGGTCTGTGATACAAGTCCGGGAGGCCAGAGACGCCCACGGACAGTGCGTGGGGCTT | 0.273
TTTCAGTAGGTGGTAGTGGGTTCAGGAAATCTGTGTTTTTACCAAAGTATCCCCTACTATAGAATTAATTTTTGTGTTCCCCCCTCATTCATAAGATGACATTTAAACCTCCACTGTGATGATACCAGGTGGCTTTGGGAGGTGATTAGGTGATAACGATGAAGCCCTCATAAATGTGATTACTGACCTAATA | -0.0632
GGTATAACTAAACAAACAAACAAACAAAAAGATACTAAAGATACCGTCTATAATTGGACCCAGGTCAGTGGTGCCTCCAGGCACCTGGCCAAAGTCAACACAGGGGGTTTGGAAGCGGAAGATAATATCAACAATGGCTAACACATTCAACGCACAAAACAGAATCCTGTTAGAACAGGTGAGAAGTAGGGCT | 0.537

Block 4
Molecule: ISNDSETLEECMVCSDMKRDTLFGPCGHIATCSLCSPRVKKCLICKEQVQSRTKIE (MIB1 RING domain (UniProt Q86YT6))
Technique: yeast two-hybrid
Matrix: yeast
Notes: mostly zero background
Relative to: not given
Direction: higher = stronger interaction
target | lacZ reporter activity
UBE2O UBC core domain (UniProt Q9C0C9) | 0
UBE2L3 UBC core domain (UniProt P68036) | 0
UBE2I UBC core domain (UniProt P63279) | 0
UBE2T UBC core domain (UniProt Q9NPD8) | 0
UBE2E3 UBC core domain (UniProt Q969T4) | 0
UBE2M UBC core domain (UniProt P61081) | 0
UBE2S UBC core domain (UniProt Q16763) | 0
UBE2J1 UBC core domain (UniProt Q9Y385) | 0
UBE2C UBC core domain (UniProt O00762) | 0

Excerpt of the above (block 2):
Sequence | fluorescence intensity [a.u.]
CCAGATCCGGATCCAAACATGACAATCGAAGATTAT | 3280
TGAATGACTTGTTGGAACGTGGTGAAATTTCTTTGG | 12200
CATCATCATCATCATCCATATCAGTAATAGGTTTTC | 3740
TTTACTTAGAACGACCACGTTACGATCTTTAGTTCC | 9530
ACCCTTTTTCCTTGCCACGTTTTCACTCAGATCTAA | 13500
CGGCCCAGATTTTTTCACCTGACTCCGGTCCTGACG | 2670
AAGTCGTTAGGGCCAATCGTGGGACGTATGCTATTG | 6340
CTAACGAAGGTTTTTCACGTGTTCTACAAGCCAAGT | 14700
